Results collected from several papers.
Compare with care: the assays were run in different laboratories. Several values in a cell are separate wells, animals, samples, runs or records. ± gives the spread as reported.

| SMILES | cell line | assay | test system | setting | IC50 |
| --- | --- | --- | --- | --- | --- |
| Cc1noc2c1-c1ccc(-c3cnn(C)c3)cc1C(c1ccc(Cl)cc1)=N[C@H]2CC(N)=O | uveal melanoma cell lines | cell viability |  | average over cell lines | 0.323 µM |
| COC(=O)/C=C/C(=O)OCCN1C(=O)CCC1=O | THP1-ASC-GFP cells | ASC speck formation, high-content imaging |  | 1 h pretreatment, added: LPS priming and nigericin | 1.93 µM |
| COc1cc(N2CCC(N3CCN(C)CC3)CC2)ccc1Nc1ncc(Cl)c(Nc2ccccc2P(C)(C)=O)n1 | Ba/F3 EML4-ALK variant 1 L1196Q | cell viability |  |  | 0.0337 µM |
| CC1CCC(OCn2c[n+](Cc3ccccc3)c3ccccc32)CC1 (centres unmarked) | H1299 (p53 null) | cell viability, MTT |  | 72 h | 36 ± 4.6 µM |
| COc1nnc2ccc(N3CCC(c4ccc(OCCN5CCN(C)C(=O)[C@H]5C)cc4)CC3)nn12 | uveal melanoma cell lines | cell viability |  | average over cell lines | 0.0825 µM |
| CC(C)(C)Cn1c(N)nc2ccc(-c3[nH]c(C(C)(C)C)nc3-c3ccc(F)cc3)nc21 | Ba/F3 expressing EGFR L858R | cell viability |  | without IL-3 | 0.15 µM |
| O=[N+]([O-])c1ccc(Sc2cccc[n+]2[O-])c2nonc12 | uveal melanoma cell lines | cell viability |  | average over cell lines | 1.9 µM |
| CCOc1cc2ncc(C#N)c(Nc3ccc(OCc4ccccn4)c(Cl)c3)c2cc1NC(=O)/C=C/CN(C)C | Ba/F3 expressing HER2 L755P | cell growth, inhibitor, CellTiter-Glo |  |  | 0.0125 µM |
| O=C1/C(=C/c2ccccc2)C(NC2CCCCC2)c2ccccc21 (centres unmarked) | THP1-ASC-GFP cells | ASC speck formation, high-content imaging |  | 1 h pretreatment, added: LPS priming and nigericin | 0.228 µM |
| COc1c(-c2coc3cc4c(cc3c2=O)CC(OC(C)=O)C(C)(C)O4)ccc2c1C=CC(C)(C)O2 (centres unmarked) | hTERT-HM | cell viability, WST-1 |  | 72 h | 123 µM |
| CCCCN1C[C@H](O)[C@@H](O)[C@@H](O)[C@H]1CO | sample BA patient fibroblasts | Gb3 level lowering, LC-MS/MS, measured: Gb3 d18:1/24:1 |  | 216 h | 17 µM |
| COC[C@@H](C)NC1CCC(Nc2cc(-c3cccc(NCC4(C#N)CCOCC4)n3)c(Cl)cn2)CC1 (some centres unmarked) | patient-derived organoid sample D rAsc | organoid viability | human | 96 h | 0.169 µM |
| C/C=C1\NC(=O)[C@H]2CSSCC/C=C/[C@H](CC(=O)N[C@H](C(C)C)C(=O)N2)OC(=O)[C@H](C(C)C)NC1=O | uveal melanoma cell lines | cell viability |  | average over cell lines | 0.00072 µM |
| C=C1C[C@](OC)([C@H](OCOC/C=C/B2OC(CC)(CC)C(CC)(CC)O2)C(=O)NC[C@@H]2C[C@@H](OC)C(C)(C)[C@@H](C[C@@H](COC)OC)O2)O[C@H](C)[C@@H]1C | B16 | cell viability, sulforhodamine B |  | 72 h, 37 °C, without H2O2 | 0.0038 ± 0.0002 µM |
| O=C(O)COCC(=O)O | hepatocytes, iPSC-derived, line L2 | cell viability, RealTime-Glo MT |  | 48 h, differentiation day 23 | 2010 µM |
| CC1(C)COc2ccc(F)cc2CN2c3nc4c(cnn4cc3OC[C@H]2C(F)F)C(=O)N1 | Ba/F3 ETV6-TRKB | cell viability |  |  | 0.0009 µM |
| CS(=O)(=O)CCNCc1ccc(-c2ccc3ncnc(Nc4ccc(OCc5cccc(F)c5)c(Cl)c4)c3c2)o1 | Ba/F3 expressing HER2 V777L | cell growth, inhibitor, CellTiter-Glo |  |  | 0.0583 µM |
| O=C(C[C@@H](C(F)F)n1ccc(F)n1)N1CCC(O)(Cn2cnc3c(cnn3-c3ccc(F)cc3)c2=O)CC1 | LNCaP USP7 V517F knock-in | cell viability, CCK-8 |  | 5 days | 4.3 µM and 3.19 µM and 3.4 µM and 4.16 µM and 3.14 µM |
| CC(=O)c1c(O)c(C)c(O)c2c1OC1=CC(=O)C(C(C)=O)C(=O)C12C (single isomer, unassigned; (+)) | hepatocytes, iPSC-derived, line L2 | cell viability |  | 72 h | 16 µM |
| O=C1CCCC2=C1C(c1c(C(=O)O)[nH]c3ccccc13)c1c(ccc3ccccc13)O2 (centres unmarked) | 3T3-L1 pre-adipocytes | cell viability, MTT |  | 72 h | 46.1 ± 1.66 µg/mL |
| C=CC(C)(C)c1[nH]cnc1/C=C1/NC(=O)[C@H](C(C)C)NC1=O | NCI-H446/EP | cell growth, SRB |  |  | 9.95 µM |
| Nc1ccn([C@@H]2O[C@H](CO)[C@@H](O)C2(F)F)c(=O)n1 | uveal melanoma cell lines | cell viability |  | average over cell lines | 0.493 µM |

| SMILES | cell line | assay | test system | setting | IC50 |
| --- | --- | --- | --- | --- | --- |
| CC(C)[C@@H]1NC(=O)/C(=C/c2cnc[nH]2)NC1=O | NCI-H446/EP | cell growth, SRB |  |  | > 15 µM |
| Cc1c(C)c2c(c(C)c1O)CCC(C)(COc1ccc(CC3SC(=O)NC3=O)cc1)O2 (centres unmarked) | hepatocytes, iPSC-derived, line L2 | cell viability, RealTime-Glo MT |  | 48 h, differentiation day 23 | 25 µM |
| COc1ccc(F)cc1C(=O)NCc1ccc(-c2nn([C@@H](C)C(F)(F)F)c(N)c2C(N)=O)cc1 | Rec1 | measured: MIP-1β/CCL4 |  | 24 h | 0.0026 ± 0.0018 µM |
| Nc1ccn([C@@H]2O[C@H](CO)[C@@H](O)C2(F)F)c(=O)n1 | MIA PaCa-2 | cell viability, MTT |  | mutant KRAS primary | 0.009 µM |
| CC[C@@H](C)[C@H](N)C(=O)N1Cc2ccccc2C1 | NOMO-1 | cell viability, CellTiter-Glo |  | day 2 | 4.2 µM |
| COC1=CC(=O)c2ccccc2C1=O | MRC-5 | cell viability, alamarBlue |  | 24 h | 11.9 µM |
| CC(=O)O[C@H]1C(=O)[C@@]2(C)[C@H]([C@H](OC(=O)c3ccccc3)[C@]3(O)C[C@H](OC(=O)[C@H](O)[C@@H](NC(=O)c4ccccc4)c4ccccc4)C(C)=C1C3(C)C)[C@]1(OC(C)=O)CO[C@@H]1C[C@@H]2O | MCF7 (compound-resistant) | cell growth, inhibitor, CellTiter-Glo |  | 96 h | 0.0445 µM |
| COc1c(Cl)cccc1Nc1c(-c2ccncc2OC[C@@H]2COCCO2)[nH]c2c1C(=O)NCC2 | Ba/F3 expressing HER2 V777L | cell growth, inhibitor, CellTiter-Glo |  |  | 0.0011 µM |
| Cc1cc(C(C)Nc2ccccc2)c2nc(N3CCOCC3)cc(=O)n2c1 (centres unmarked) | HCC1954 (PIK3CA H1047R) | cell viability |  | 4 days | 5.49 µM |
| COc1ccc(N(C)c2nc(C)nc3ccccc23)cc1OCCCC(=O)NO | uveal melanoma cell lines | cell viability |  | average over cell lines | 5.87 µM |
| CC1(C)CC(=O)C2=C(C1)Oc1ccc(Cl)cc1C2n1nnc2ccccc21 (centres unmarked) | 3T3-L1 pre-adipocytes | cell viability, MTT |  | 72 h | 24.7 ± 2.34 µg/mL |
| Cc1cc(Nc2ncnc3ccc(NC4=NC(C)(C)CO4)cc23)ccc1Oc1ccn2ncnc2c1 | Ba/F3 expressing HER2 L755P | cell growth, inhibitor, CellTiter-Glo |  |  | 0.608 µM |
| CN(C)C/C=C/C(=O)Nc1cc2c(Nc3ccc(F)c(Cl)c3)ncnc2cc1O[C@H]1CCOC1 | NCI-H1975 |  |  |  | 0.71 ± 0.04 µM |
| C[C@H]1Oc2cc(cnc2N)-c2c(nn(C)c2C#N)CN(C)C(=O)c2ccc(F)cc21 | Ba/F3 CLIP1-LTK | cell viability |  |  | 0.0013 µM |
| c1ccc(C[n+]2cn(COC3CCCCC3)c3ccccc32)cc1 | H1299 (p53 null) | cell viability, MTT |  | 72 h | 45 ± 6.3 µM |
| CNc1ncc2cc(-c3cc(OC)cc(OC)c3Cl)c(=O)n(CCc3ccc(NC(=O)C(C#N)=CC(C)(C)N4CC5(COC5)C4)cc3)c2n1 | HUVEC | ERK phosphorylation, inhibitor, measured: phospho-ERK1/2 |  | added: bFGF | 0.0034 ± 0.0008 µM |
| N[C@@H](CC(=O)N1CCN(C(c2ccc(F)cc2)c2ccc(F)cc2)CC1)C(=O)N1Cc2ccccc2C1 | NOMO-1 | cell viability, CellTiter-Glo |  | day 5 | 0.9 µM |
| Cc1c(C(=O)O)ccc2c3n(nc12)[C@@H]1[C@H](C3)N(CC2CC2)[C@@]2(C(=O)Nc3cc(Cl)ccc32)[C@H]1c1cccc(Cl)c1F | resistant cancer cell lines | cell viability, PRISM pooled screen |  | range, low sensitivity | 2.19 to 9.79 µM |
| CN1CCN(c2ccc(C(=O)Nc3n[nH]c4ccc(Cc5cc(F)cc(F)c5)cc34)c(NC3CCOCC3)c2)CC1 | KM12-Luc (TPM3-NTRK1) | cell growth, CellTiter-Glo |  | 72 h | 5.41 ± 1.32 µM |
| CC1=C(CO)C(=O)O[C@@H]([C@@H](C)[C@H]2CC[C@H]3[C@@H]4C[C@H]5O[C@]56[C@@H](O)C=CC(=O)[C@]6(C)[C@H]4CC[C@]23C)C1 | THP-1 | pyroptotic cell death, inhibitor, CellTiter-Glo |  | added: LPS priming and nigericin | 0.258 µM |
| C[C@@H]1CN(C(=O)c2ccc(NC(=O)c3cc(O[C@H](C)c4c(Cl)ccc(F)c4Cl)c(N)nn3)cc2)C[C@H](C)N1 | Ba/F3 EML4-ALK variant 1 L1196Q | cell viability |  |  | 0.0216 µM |
| C=CC(=O)NC1CCN(c2ncc3ncnc(Nc4ccc(Oc5ccc6c(c5)ncn6C)c(C)c4)c3n2)CC1 | Ba/F3 expressing HER2 V777L | cell growth, inhibitor, CellTiter-Glo |  |  | 0.0016 µM |

Repeated from above:
| SMILES | cell line | assay | test system | setting | IC50 |
| --- | --- | --- | --- | --- | --- |
| c1ccc(C[n+]2cn(COC3CCCCC3)c3ccccc32)cc1 | H1299 (p53 null) | cell viability, MTT |  | 72 h | 45 ± 6.3 µM |
| CCCCN1C[C@H](O)[C@@H](O)[C@@H](O)[C@H]1CO | sample BA patient fibroblasts | Gb3 level lowering, LC-MS/MS, measured: Gb3 d18:1/24:1 |  | 216 h | 17 µM |
| CNc1ncc2cc(-c3cc(OC)cc(OC)c3Cl)c(=O)n(CCc3ccc(NC(=O)C(C#N)=CC(C)(C)N4CC5(COC5)C4)cc3)c2n1 | HUVEC | ERK phosphorylation, inhibitor, measured: phospho-ERK1/2 |  | added: bFGF | 0.0034 ± 0.0008 µM |
| CC1CCC(OCn2c[n+](Cc3ccccc3)c3ccccc32)CC1 (centres unmarked) | H1299 (p53 null) | cell viability, MTT |  | 72 h | 36 ± 4.6 µM |
| Cc1c(C(=O)O)ccc2c3n(nc12)[C@@H]1[C@H](C3)N(CC2CC2)[C@@]2(C(=O)Nc3cc(Cl)ccc32)[C@H]1c1cccc(Cl)c1F | resistant cancer cell lines | cell viability, PRISM pooled screen |  | range, low sensitivity | 2.19 to 9.79 µM |
